Measurements of several laboratories.
± marks the error that the study gave.
Chain of UniProt O60674 (whole entry, looked up): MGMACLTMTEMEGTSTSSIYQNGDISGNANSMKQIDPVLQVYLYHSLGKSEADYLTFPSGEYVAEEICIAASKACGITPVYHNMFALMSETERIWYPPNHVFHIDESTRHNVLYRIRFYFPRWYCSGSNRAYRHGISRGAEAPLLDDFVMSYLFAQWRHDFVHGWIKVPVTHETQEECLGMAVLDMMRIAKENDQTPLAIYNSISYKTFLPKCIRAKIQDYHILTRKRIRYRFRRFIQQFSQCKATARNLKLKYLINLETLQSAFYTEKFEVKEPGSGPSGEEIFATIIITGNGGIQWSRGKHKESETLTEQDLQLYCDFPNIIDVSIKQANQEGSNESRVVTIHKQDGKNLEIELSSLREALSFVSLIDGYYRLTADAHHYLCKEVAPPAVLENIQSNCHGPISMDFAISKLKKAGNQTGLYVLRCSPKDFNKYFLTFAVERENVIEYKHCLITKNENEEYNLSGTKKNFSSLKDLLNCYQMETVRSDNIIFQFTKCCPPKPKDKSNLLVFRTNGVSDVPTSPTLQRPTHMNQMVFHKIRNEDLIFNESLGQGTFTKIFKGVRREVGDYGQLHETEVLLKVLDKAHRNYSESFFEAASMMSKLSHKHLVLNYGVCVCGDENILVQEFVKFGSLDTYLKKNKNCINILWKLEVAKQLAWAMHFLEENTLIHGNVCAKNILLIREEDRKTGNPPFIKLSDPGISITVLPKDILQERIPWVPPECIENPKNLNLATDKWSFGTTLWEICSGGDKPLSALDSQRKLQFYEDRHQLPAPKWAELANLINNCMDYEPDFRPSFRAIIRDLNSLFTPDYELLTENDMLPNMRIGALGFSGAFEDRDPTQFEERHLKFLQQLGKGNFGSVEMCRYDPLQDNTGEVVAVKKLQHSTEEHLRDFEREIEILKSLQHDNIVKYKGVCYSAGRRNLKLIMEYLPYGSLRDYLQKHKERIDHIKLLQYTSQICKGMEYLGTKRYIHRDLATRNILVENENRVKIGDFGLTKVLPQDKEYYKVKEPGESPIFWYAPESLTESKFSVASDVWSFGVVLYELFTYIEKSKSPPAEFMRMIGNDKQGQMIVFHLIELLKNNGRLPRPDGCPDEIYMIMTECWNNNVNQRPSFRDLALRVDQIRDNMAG

Structure (SMILES)	target or system	test	test system	setting	scale	measurement	result
COc1c(CCC[P+](c2ccccc2)(c2ccccc2)c2ccccc2)cc2c(c1OC)OCO2.[I-]	COLO 205	SRB				TGI	-5.24 log M
C[C@H]1CN(c2n[nH]c3nc(N[C@H]4CC[C@H](NS(=O)(=O)CCC(F)(F)F)CC4)ncc23)CCO1	Tyrosine-protein kinase JAK2 (JAK2, Homo sapiens, UniProt O60674)	inhibitor, Kinobeads competition profiling		0.16 µM	baseline: vehicle	relative abundance	1.13
Cc1oncc1C(=O)Nc1ccc(C(F)(F)F)cc1	human coronavirus OC43	virus-induced cell killing	MRC-5	screen		maximum inhibition	8.12%
Cc1cc(C(C)(C)c2ccc(O)c(C)c2)ccc1O	HepG2 spheroids	Hoechst flow cytometry		0.10 µM, 96 h		G1 phase cells	65.7 ± 9.95%
Nc1ncnc2c1ncn2[C@@H]1O[C@@H]2COP(=O)(O)O[C@H]3[C@@H](O)[C@H](n4cnc5c(=O)[nH]cnc54)O[C@@H]3COP(=O)(O)O[C@H]2[C@H]1O	HFF-1	RNA sequencing Reactome analysis, item: Reactome R-HSA-1236977 endosomal/vacuolar pathway		with: West Nile virus infection	baseline: West Nile virus infected cells, upregulated pathway	pathway fold enrichment	23
COc1c(C)c2c(c(O)c1C/C=C(\C)CCC(=O)O)C(=O)OC2	MT3	cell proliferation				IC50	0.851 µM
CC(C)N1CCC(NC2CCN(c3cccc(-c4cc5cc(F)ccc5[nH]4)c3)CC2)CC1	COLO 205					GI50	1.49 µM
COc1cc(CCC[P+](c2ccccc2)(c2ccccc2)c2ccccc2)c(OC)c2c1OCO2.[I-]	COLO 205	SRB				GI50	-6.04 log M
COc1ccc2c(c1)[nH]c1c(C)nccc12	DU-145	bisulfite pyrosequencing, item: RASSF1A promoter CpG site 17		10 µM, 16 h		DNA methylation	92.9%
CN1CCN(C2(CNC3CCN(c4cccc(-c5cc6cc(F)ccc6[nH]5)c4)CC3)CCC2)CC1	OVCAR-5					GI50	1.75 µM
C/C=C(/C)C(=O)O[C@H]1C(C)=C2[C@H]([C@@H]1OC(=O)CCCCCCC)[C@@](C)(OC(C)=O)C[C@H](OC(=O)CCC)[C@@]1(O)[C@H]2OC(=O)[C@@]1(C)O	HEK293T	RNA-seq, item: CLU mRNA		10 µM, 6 h	baseline: vehicle	log2 fold change	-0.0535
CC[C@H](C)C(=O)O[C@H]1C[C@H](O)C=C2C=C[C@H](C)[C@H](CC[C@@H](O)C[C@@H](O)CC(=O)O)[C@H]21	human coronavirus OC43	virus-induced cell killing	MRC-5	screen		maximum inhibition	20.6%
